Measurements collected from several papers.
Each line is one published result; not all experiments were run side by side.
Matrix: plasma

| Structure (SMILES) | technique | species | route | dose | setting | quantity | result |
| --- | --- | --- | --- | --- | --- | --- | --- |
| Cc1cc(/C=C/C#N)cc(C)c1Oc1nc(NC2CCN(Cc3ccc(S(C)(=O)=O)cc3)CC2)nc2ncccc12 | – | Sprague-Dawley rat | oral | 20 mg/kg | – | MRT(0-inf) | 3.48 h |
| CC(C)(C)C(=O)Nc1ccc2[nH]c(CN3CCC(N(CCCN4CCOCC4)CC4OC(n5cnc6c(N)ncnc65)C(O)C4O)CC3)nc2c1 (stereo not drawn) | – | male Sprague-Dawley rat | intraperitoneal | 20 mg/kg | – | MRT | 1.75 h |
| Cn1cc(-c2cc(N3CCCS3(=O)=O)ccc2N[C@H]2CC[C@H](C)CC2)c2cc[nH]c2c1=O | – | Sprague-Dawley rat | intravenous | 1 mg/kg | – | MRT(0-inf) | 1.66 h |
| CNC(=O)N[C@]1(C)CCC[C@@]2(C)C3CC[C@@]4(C)C[C@]3(CCC21)CC4=O (single isomer, unassigned) | – | male Sprague-Dawley rat | intravenous | 2 mg/kg | – | MRT(0-inf) | 0.344 h |
| COc1cc(NC(C)=O)c2c(c1O)-c1c(OC)c(OC)cc3c1C(C2)N(C)CC3 (stereo not drawn) | HPLC | male Wistar rat | intravenous | 100 mg/kg | – | MRT(0-inf) | 2.22 h |
| O=C(N[C@@H](CC1CCCCC1)C(=O)N[C@@H](C[C@H]1CCNC1=O)C(=O)C(=O)NC1CC1)OCc1cccc(Cl)c1 | – | female Sprague-Dawley rat | oral | 10 mg/kg | – | MRT | 14.2 h |
| CNc1cc(C(=O)Nc2ccc(Cl)cc2)ccc1OC | – | male Sprague-Dawley rat | oral | 20 mg/kg | single dose | MRT(0-t) | 1.9 h |
| N=C(N)NCCC[C@H](NC(=O)[C@@H]1CCCN1C(=O)[C@H](Cc1ccccc1)NC(=O)[C@@H]1CCCN1C(=O)[C@H](Cc1c[nH]cn1)NC(=O)[C@@H](N)Cc1ccccc1)C(=O)O | – | male Sprague-Dawley rat | intravenous | 10 mg/kg | – | MRT | 0.344 h |
| CSCOC1C(=O)C2(C)C(OCSC)CC3OCC3(OC(C)=O)C2C(OC(=O)c2ccccc2)C2(O)CC(OC(=O)C(O)C(C=C(C)C)NC(=O)OC(C)(C)C)C(C)=C1C2(C)C (stereo not drawn) | – | female Sprague-Dawley rat | intravenous | 1 mg/kg | – | MRT(0-t) | 3.5 h |
| Nc1nc(Cl)nc2c1ncn2Cc1cc(OCC(F)F)cc(OC(F)F)c1 | – | Sprague-Dawley rat | oral | 5 mg/kg | – | MRT(0-t) | 13.4 h |
| COC(=O)/C=C/C(=O)c1ccc(OC)cc1 | – | Sprague-Dawley rat | oral | 100 mg/kg | – | MRT | 11.7 h |
| Cn1cc(-c2cc(N3CCCCS3(=O)=O)ccc2N[C@H]2CC[C@H](C)CC2)c2cc[nH]c2c1=O (stereo in doubt) | – | Sprague-Dawley rat | intravenous | 1 mg/kg | – | MRT(0-inf) | 1.2 h |
| CCCN(c1ccc(C(=O)NCCC(=O)O)cc1)S(=O)(=O)c1cc(C)c(-c2ccc(C(C)(C)C)cc2)c(C)c1 | – | rat | intravenous | 2 mg/kg | – | MRT | 0.263 h |
| C#Cc1cccc(Nc2ncnc3cc(OC)c(OCCCN4CCOCC4)cc23)c1 | – | Sprague-Dawley rat | intravenous | 10 mg/kg | – | MRT(0-inf) | 3.96 h |
| N#Cc1cnc2cc(OCC3CCNCC3)c(F)cc2c1Nc1cc(F)c(OCc2cccc(Cl)n2)cc1Cl | – | male Sprague-Dawley rat | oral | 300 mg/kg | – | MRT | 11.8 h |

A few entries again:
| Structure (SMILES) | technique | species | route | dose | setting | quantity | result |
| --- | --- | --- | --- | --- | --- | --- | --- |
| COC(=O)/C=C/C(=O)c1ccc(OC)cc1 | – | Sprague-Dawley rat | oral | 100 mg/kg | – | MRT | 11.7 h |
